Measurements gathered from unrelated publications.
Each line is one published result; not all experiments were run side by side. ± marks the error that the study gave.

Nc1nc2c(ncn2[C@@H]2O[C@@H]3COP(=O)(O)O[C@H]4[C@@H](O)[C@H](n5cnc6c(N)ncnc65)O[C@@H]4COP(=O)(O)O[C@H]4[C@@H](O)[C@H](n5cnc6c(N)ncnc65)O[C@@H]4COP(=O)(O)O[C@H]3[C@H]2O)c(=O)[nH]1  Kd (tad1 (Metaclostridioides mangenotii, UniProt P0DW61)): ~0.0201 µM
CC1=C(C)C(=O)C(C)=C(C)C1=O  Kd (Reaction center protein M chain, QA site (pufM, Cereibacter sphaeroides, UniProt P0C0Y9); QA site binding; LDAO detergent solution; pH 7.8, 298 K, added: 1 µM reaction centres): 0.8 µM
CN1C2CCCC1CC(NC(=O)c1nn(C)c3ccccc13)C2 (centres unmarked)  Kd (Soluble acetylcholine receptor (Aplysia californica, UniProt Q8WSF8, D181A/K160T/Q74R/S111E/V159L); homologous radioligand competition): 0.618 ± 0.034 µM
CC[C@H](CO)Nc1nc(NCc2ccc(-c3ccccn3)cc2)c2ncn(C(C)C)c2n1  Kd (CABLES1, human; affinity chromatography competition; SH-SY5Y cell extract): 3.45 µM
Nc1ncnc2c1ncn2[C@@H]1O[C@H](C[C@@H](N)CC[C@H](N)C(=O)O)[C@@H](O)[C@H]1O  Kd (O-methyltransferase (Sorghum bicolor, UniProt A0A1B6PFV1, W279A); isothermal titration calorimetry; APO): 0.88 µM
O=C(O)CNC(=O)c1cccnc1  Kd (Ubiquitin carboxyl-terminal hydrolase 13, ZnF-UBD domain (USP13, Homo sapiens, UniProt Q92995)): > 1000 µM
CC(C)C[C@H](NC(=O)[C@@H](NC(=O)[C@H](CO)NC(=O)[C@H](CO)NC(=O)[C@@H](NC(=O)[C@H](CC(=O)O)NC(=O)[C@H](CC(C)C)NC(=O)[C@@H]1CCCN1C(=O)[C@H](CO)NC(=O)c1ccc2c(c1)C(=O)OC21c2ccc(N(C)C)cc2Oc2cc(N(C)C)ccc21)[C@@H](C)O)C(C)C)C(=O)N[C@@H](Cc1ccc(OP(=O)(O)O)cc1)C(=O)N[C@H](C(=O)N[C@@H](C)C(=O)N[C@H](C(=O)N[C@@H](CCC(N)=O)C(=O)N1CCC[C@H]1C(=O)N[C@@H](CC(N)=O)C(=O)N[C@@H](CCC(=O)O)C(=O)N[C@@H](CC(=O)O)C(=O)O)C(C)C)[C@@H](C)O  Kd (SH2 domain-containing protein 3A, SH2 domain (SH2D3A, Homo sapiens, UniProt Q9BRG2); binding): 1.17 µM
CC[C@H](C)CCCCC(=O)N[C@@H](CCN)C(=O)N[C@H](C(=O)N[C@@H](CCN)C(=O)N[C@H]1CCNC(=O)[C@H]([C@@H](C)O)NC(=O)[C@H](CCN)NC(=O)[C@H](CCN)NC(=O)[C@H](CC(C)C)NC(=O)[C@@H](CC(C)C)NC(=O)[C@H](CCN)NC1=O)[C@@H](C)O  Kd (AcrB Klebsiella pneumoniae ATCC 43816; isothermal titration calorimetry; pH 7.5, 25 °C, 0.03% DDM): 0.32 µM
CC[C@H](C)[C@H](NC(=O)[C@H](CC(=O)O)NC(=O)[C@H](C)NC(=O)[C@H](Cc1ccc(OP(=O)(O)O)cc1)NC(=O)[C@H](CCCCN)NC(=O)[C@@H](NC(=O)[C@H](CC(=O)O)NC(=O)CNC(=O)[C@H](CCCCN)NC(=O)[C@H](CCSC)NC(=O)[C@H](CC(=O)O)NC(=O)[C@H](CC(C)C)NC(=O)[C@H](CCSC)NC(=O)c1ccc2c(c1)C(=O)OC21c2ccc(N(C)C)cc2Oc2cc(N(C)C)ccc21)C(C)C)C(=O)N[C@@H](CCC(=O)O)C(=O)N[C@@H](CO)C(=O)N[C@@H](CO)C(=O)N[C@@H](CC(N)=O)C(=O)N[C@@H](CC(=O)O)C(=O)O  Kd (Signal transducer and activator of transcription 1-alpha/beta, SH2 domain (STAT1, Homo sapiens, UniProt P42224); binding): 1.56 µM
CC(C)[C@H](N)C(=O)N1CCC[C@H]1C(=O)N[C@@H](CO)C(=O)N[C@@H](CCC(N)=O)C(=O)N[C@@H](CO)C(=O)N[C@@H](Cc1ccccc1)C(=O)N1CCC[C@H]1C(=O)N[C@@H](C)C(=O)N1CCC[C@H]1C(=O)N[C@@H](CCCNC(=N)N)C(=O)N[C@@H](CO)C(=O)N[C@@H](CCC(N)=O)C(=O)N[C@@H](CCC(N)=O)C(=O)N[C@@H](CCCNC(=N)N)C(=O)N[C@@H](Cc1c[nH]c2ccccc12)C(=O)O  Kd (Serine/threonine-protein phosphatase 4 regulatory subunit 3A, EVH1 domain (Homo sapiens, UniProt Q6IN85); isothermal titration calorimetry; sodium phosphate buffer; pH 7.5): 80.3 ± 4.3 µM
CC(=O)NCC(=O)NCC(=O)N[C@H](C(=O)N[C@@H](Cc1ccc(O)cc1)C(=O)N[C@@H](CO)C(=O)N[C@H]1CSSC[C@@H](C(=O)N[C@@H](CCCNC(=N)N)C(=O)N2CCC[C@H]2C(=O)N[C@@H](CCC(N)=O)C(=O)N[C@@H](CCCNC(=N)N)C(=O)NCC(=O)NCCC(=O)N[C@@H](CCCCNC(=O)CN(CC(=O)NCCCC[C@H](NC(=O)CCNC(=O)CNC(=O)[C@H](CCCNC(=N)N)NC(=O)[C@H](CCC(N)=O)NC(=O)[C@@H]2CCCN2C(=O)[C@H](CCCNC(=N)N)NC(=O)[C@@H]2CSSC[C@H](NC(=O)[C@H](CO)NC(=O)[C@H](Cc3ccc(O)cc3)NC(=O)[C@@H](NC(=O)CNC(=O)CNC(C)=O)[C@@H](C)O)C(=O)N[C@@H](Cc3c[nH]cn3)C(=O)N[C@@H](Cc3ccccc3)C(=O)NCC(=O)N[C@@H](C)C(=O)N[C@@H](CC(C)C)C(=O)N[C@@H]([C@@H](C)O)C(=O)N[C@@H](Cc3c[nH]c4ccccc34)C(=O)N[C@@H](C(C)C)C(=O)N2)C(N)=O)C(=O)CCN)C(N)=O)NC(=O)[C@H](C(C)C)NC(=O)[C@H](Cc2c[nH]c3ccccc23)NC(=O)[C@H]([C@@H](C)O)NC(=O)[C@H](CC(C)C)NC(=O)[C@H](C)NC(=O)CNC(=O)[C@H](Cc2ccccc2)NC(=O)[C@H](Cc2c[nH]cn2)NC1=O)[C@@H](C)O  Kd (Erythropoietin receptor, extracellular domain (Homo sapiens, UniProt P19235); binding, SPR): 5.42e-05 µM
CC[C@H](C)[C@@H]1NC(=O)[C@H](Cc2ccccc2)NC(=O)[C@H](Cc2ccccc2)NC(=O)[C@@H]2CCCN2C(=O)[C@H](Cc2ccccc2)NC(=O)[C@H](C(C)C)NC(=O)[C@@H]2CCCN2C(=O)[C@H]([C@@H](C)CC)NC(=O)[C@H]([C@@H](C)CC)NC(=O)[C@H](CC(C)C)NC(=O)[C@@H](NC(=O)[C@H](CCSC)NC(C)=O)CSSC[C@@H](C(=O)NCC(=O)N[C@@H](CO)C(=O)NCC(=O)N[C@@H](CO)C(=O)N[C@@H](CC(=O)O)C(=O)N[C@@H](Cc2ccc(O)cc2)C(=O)N[C@@H](CCCCN)C(=O)N[C@@H](CC(=O)O)C(=O)N[C@@H](CC(=O)O)C(=O)N[C@@H](CC(=O)O)C(=O)N[C@@H](CC(=O)O)C(=O)N[C@@H](CCCCN)C(N)=O)NC1=O  Kd (Gastric inhibitory polypeptide receptor, extracellular domain (GIPR, Homo sapiens, UniProt P48546); binding, biolayer interferometry; crude peptide, single concentration): 0.065 µM
NCCc1ccc(O)c(O)c1  Kd (commercial monoclonal antibody; lower = stronger binding): 39 ± 6 µM
CC[C@H](C)[C@H](NC(=O)[C@H](CC(=O)O)NC(=O)[C@H](C)NC(=O)[C@H](Cc1ccc(O)cc1)NC(=O)[C@H](CCCCN)NC(=O)c1ccc2c(c1)C(=O)OC21c2ccc(N(C)C)cc2Oc2cc(N(C)C)ccc21)C(=O)N[C@@H](CCC(=O)O)C(=O)N[C@@H](CO)C(=O)N[C@@H](CO)C(=O)N[C@@H](CC(N)=O)C(=O)N[C@@H](Cc1ccc(OP(=O)(O)O)cc1)C(=O)N[C@@H](CCSC)C(=O)N[C@@H](C)C(=O)N1CCC[C@H]1C(=O)N[C@@H](Cc1ccc(O)cc1)C(=O)N[C@@H](CC(=O)O)C(=O)N[C@@H](CC(N)=O)C(=O)N[C@@H](Cc1ccc(O)cc1)C(=O)N[C@@H](CC(=O)O)C(=O)O  Kd (Ras GTPase-activating protein 1, SH2 domains (RASA1, Homo sapiens, UniProt P20936); binding): 0.335 µM
CC(C)C[C@H](NC(=O)[C@H](CC(=O)O)NC(=O)[C@H](COP(=O)(O)O)NC(=O)[C@H](CC(=O)O)NC(=O)[C@H](CO)NC(=O)CNC(=O)[C@H](C)NC(=O)[C@@H](N)Cc1ccc(O)cc1)C(=O)N[C@@H](CC(=O)O)C(=O)N[C@@H](COP(=O)(O)O)C(=O)N[C@@H](CC(=O)O)C(=O)N[C@@H](CC(=O)O)C(=O)N[C@@H](CCC(=O)O)C(=O)N[C@@H](Cc1ccccc1)C(=O)N[C@H](C(=O)N1CCC[C@H]1C(=O)N[C@@H](Cc1ccc(O)cc1)C(N)=O)C(C)C  Kd (PIH1 domain-containing protein 1, residues 51-180 (PIH1D1, Homo sapiens, UniProt Q9NWS0); binding, ITC; pH 8.0, 20 °C, PIH-N domain): 1.5 ± 0.2 µM
C[C@H]1CN(c2n[nH]c3nc(N[C@H]4CC[C@H](NS(=O)(=O)CCC(F)(F)F)CC4)ncc23)CCO1  remaining binding (MAPK11 (Homo sapiens, UniProt Q15759); Kinobeads competition; HEK293, K562, placenta lysate; 20 µM, unit not given; relative to: vehicle): 0.13
CC[C@H](C)[C@H](NC(=O)[C@H](Cc1ccc(OP(=O)(O)O)cc1)NC(=O)[C@H](CCC(=O)O)NC(=O)[C@H](Cc1c[nH]cn1)NC(=O)CNC(=O)[C@H](CC(=O)O)NC(=O)[C@H](CO)NC(=O)[C@H](CO)NC(=O)[C@@H](NC(=O)[C@H](CO)NC(=O)[C@H](CCC(=O)O)NC(=O)c1ccc2c(c1)C(=O)OC21c2ccc(N(C)C)cc2Oc2cc(N(C)C)ccc21)C(C)C)C(=O)N[C@@H](Cc1ccc(O)cc1)C(=O)N[C@H](C(=O)N[C@@H](CC(=O)O)C(=O)N1CCC[C@H]1C(=O)N[C@@H](CCSC)C(=O)N[C@@H](CCC(N)=O)C(=O)N[C@@H](CC(=O)O)C(=O)O)C(C)C  Kd (Cytoplasmic tyrosine-protein kinase BMX, SH2 domain (BMX, Homo sapiens, UniProt P51813); binding): 1.54 µM
CC[C@H](C)[C@H](NC(=O)[C@H](Cc1c[nH]c2ccccc12)NC(=O)[C@H](C)NC(=O)[C@H](C)NC(=O)[C@H](Cc1ccc(O)cc1)NC(=O)[C@@H](N)CO)C(=O)N[C@@H](CC(=O)O)C(=O)N[C@H](C(=O)N[C@@H](CCC(=O)O)C(=O)N[C@@H](CC(=O)O)C(=O)N[C@@H](CC(C)C)C(=O)O)C(C)C  Kd (Serine protease HTRA1, PDZ domain (Homo sapiens, UniProt Q92743); isothermal titration calorimetry; isolated PDZ domain; pH 8.0): 80 µM
CC[C@H](C)[C@H](NC(=O)[C@H](Cc1ccc(OP(=O)(O)O)cc1)NC(=O)[C@H](CCC(=O)O)NC(=O)[C@@H]1CCCN1C(=O)[C@@H](NC(=O)[C@@H]1CCCN1C(=O)[C@H](CC(C)C)NC(=O)[C@H](Cc1ccccc1)NC(=O)[C@@H](NC(=O)[C@H](CC(=O)O)NC(=O)[C@H](CC(=O)O)NC(=O)c1ccc2c(c1)C(=O)OC21c2ccc(N(C)C)cc2Oc2cc(N(C)C)ccc21)[C@@H](C)O)C(C)C)C(=O)N[C@@H](CC(N)=O)C(=O)N[C@@H](CCC(N)=O)C(=O)N[C@@H](CO)C(=O)N[C@H](C(=O)N1CCC[C@H]1C(=O)N[C@@H](CCCCN)C(=O)N[C@@H](CC(=O)O)C(=O)O)C(C)C  Kd (Tyrosine-protein kinase ABL1, SH2 domain (ABL1, Homo sapiens, UniProt P00519); binding): 0.916 µM
NC(=O)N/N=C/c1ccc([N+](=O)[O-])o1  Kd (nfsB (Escherichia coli K-12, UniProt P38489, K14E); binding; Escherichia coli): 35 ± 2 µM

For quick reference, copied from above:
CC[C@H](C)[C@H](NC(=O)[C@H](Cc1c[nH]c2ccccc12)NC(=O)[C@H](C)NC(=O)[C@H](C)NC(=O)[C@H](Cc1ccc(O)cc1)NC(=O)[C@@H](N)CO)C(=O)N[C@@H](CC(=O)O)C(=O)N[C@H](C(=O)N[C@@H](CCC(=O)O)C(=O)N[C@@H](CC(=O)O)C(=O)N[C@@H](CC(C)C)C(=O)O)C(C)C  Kd (Serine protease HTRA1, PDZ domain (Homo sapiens, UniProt Q92743); isothermal titration calorimetry; isolated PDZ domain; pH 8.0): 80 µM
CC[C@H](C)[C@H](NC(=O)[C@H](Cc1ccc(OP(=O)(O)O)cc1)NC(=O)[C@H](CCC(=O)O)NC(=O)[C@@H]1CCCN1C(=O)[C@@H](NC(=O)[C@@H]1CCCN1C(=O)[C@H](CC(C)C)NC(=O)[C@H](Cc1ccccc1)NC(=O)[C@@H](NC(=O)[C@H](CC(=O)O)NC(=O)[C@H](CC(=O)O)NC(=O)c1ccc2c(c1)C(=O)OC21c2ccc(N(C)C)cc2Oc2cc(N(C)C)ccc21)[C@@H](C)O)C(C)C)C(=O)N[C@@H](CC(N)=O)C(=O)N[C@@H](CCC(N)=O)C(=O)N[C@@H](CO)C(=O)N[C@H](C(=O)N1CCC[C@H]1C(=O)N[C@@H](CCCCN)C(=O)N[C@@H](CC(=O)O)C(=O)O)C(C)C  Kd (Tyrosine-protein kinase ABL1, SH2 domain (ABL1, Homo sapiens, UniProt P00519); binding): 0.916 µM
